Results of several laboratories.
Lines come from different studies, so protocols differ. Converted amounts (≈) assume the structure as drawn.
CA2: Carbonic anhydrase 2 (CA2, Homo sapiens, UniProt P00918)
PFF0160c E182D: Dihydroorotate dehydrogenase (quinone), mitochondrial (PFF0160c, Plasmodium falciparum, UniProt Q08210, E182D)
Htr2a: 5-hydroxytryptamine receptor 2A (Htr2a, Mus musculus, UniProt P35363)
UniProt P35363, sequence (whole entry, looked up): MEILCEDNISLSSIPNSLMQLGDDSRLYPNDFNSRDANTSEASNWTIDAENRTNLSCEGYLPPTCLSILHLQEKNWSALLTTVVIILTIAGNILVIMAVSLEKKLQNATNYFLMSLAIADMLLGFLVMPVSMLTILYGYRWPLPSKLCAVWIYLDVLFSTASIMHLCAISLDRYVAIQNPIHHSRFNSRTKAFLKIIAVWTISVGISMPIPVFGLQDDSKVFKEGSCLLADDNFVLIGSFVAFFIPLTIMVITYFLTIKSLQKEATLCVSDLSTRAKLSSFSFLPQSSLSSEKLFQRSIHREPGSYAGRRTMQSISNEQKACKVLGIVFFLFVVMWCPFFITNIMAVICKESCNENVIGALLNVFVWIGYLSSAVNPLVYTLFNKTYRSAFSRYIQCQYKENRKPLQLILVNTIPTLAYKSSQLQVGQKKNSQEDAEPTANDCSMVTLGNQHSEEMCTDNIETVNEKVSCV
HTR2C: 5-hydroxytryptamine receptor 2C (HTR2C, Homo sapiens, UniProt P28335)
UniProt P28335, sequence (whole entry, looked up): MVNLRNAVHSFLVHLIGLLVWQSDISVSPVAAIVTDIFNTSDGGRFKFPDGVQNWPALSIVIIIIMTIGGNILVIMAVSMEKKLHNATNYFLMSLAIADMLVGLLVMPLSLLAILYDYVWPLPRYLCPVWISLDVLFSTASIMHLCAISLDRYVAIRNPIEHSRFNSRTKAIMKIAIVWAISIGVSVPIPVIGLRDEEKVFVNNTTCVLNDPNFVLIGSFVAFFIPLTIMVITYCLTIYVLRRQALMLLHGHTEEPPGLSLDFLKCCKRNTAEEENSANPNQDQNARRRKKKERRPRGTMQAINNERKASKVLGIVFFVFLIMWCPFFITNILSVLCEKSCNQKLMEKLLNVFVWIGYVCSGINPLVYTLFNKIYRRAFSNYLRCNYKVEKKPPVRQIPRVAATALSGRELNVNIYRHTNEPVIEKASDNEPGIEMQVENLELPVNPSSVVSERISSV
PFF0160c: Dihydroorotate dehydrogenase (quinone), mitochondrial (PFF0160c, Plasmodium falciparum, UniProt Q08210)
UniProt O43570, sequence (whole entry, looked up): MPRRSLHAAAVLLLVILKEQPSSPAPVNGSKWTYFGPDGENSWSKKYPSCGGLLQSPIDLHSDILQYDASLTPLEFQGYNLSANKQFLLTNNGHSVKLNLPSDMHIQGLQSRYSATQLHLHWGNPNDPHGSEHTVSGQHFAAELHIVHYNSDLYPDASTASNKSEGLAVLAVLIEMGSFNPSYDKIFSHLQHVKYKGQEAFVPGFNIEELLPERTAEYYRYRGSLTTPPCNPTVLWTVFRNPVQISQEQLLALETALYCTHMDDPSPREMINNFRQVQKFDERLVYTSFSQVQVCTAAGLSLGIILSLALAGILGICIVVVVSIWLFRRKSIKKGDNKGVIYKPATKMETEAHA
UniProt Q9NQU5, sequence (whole entry, looked up): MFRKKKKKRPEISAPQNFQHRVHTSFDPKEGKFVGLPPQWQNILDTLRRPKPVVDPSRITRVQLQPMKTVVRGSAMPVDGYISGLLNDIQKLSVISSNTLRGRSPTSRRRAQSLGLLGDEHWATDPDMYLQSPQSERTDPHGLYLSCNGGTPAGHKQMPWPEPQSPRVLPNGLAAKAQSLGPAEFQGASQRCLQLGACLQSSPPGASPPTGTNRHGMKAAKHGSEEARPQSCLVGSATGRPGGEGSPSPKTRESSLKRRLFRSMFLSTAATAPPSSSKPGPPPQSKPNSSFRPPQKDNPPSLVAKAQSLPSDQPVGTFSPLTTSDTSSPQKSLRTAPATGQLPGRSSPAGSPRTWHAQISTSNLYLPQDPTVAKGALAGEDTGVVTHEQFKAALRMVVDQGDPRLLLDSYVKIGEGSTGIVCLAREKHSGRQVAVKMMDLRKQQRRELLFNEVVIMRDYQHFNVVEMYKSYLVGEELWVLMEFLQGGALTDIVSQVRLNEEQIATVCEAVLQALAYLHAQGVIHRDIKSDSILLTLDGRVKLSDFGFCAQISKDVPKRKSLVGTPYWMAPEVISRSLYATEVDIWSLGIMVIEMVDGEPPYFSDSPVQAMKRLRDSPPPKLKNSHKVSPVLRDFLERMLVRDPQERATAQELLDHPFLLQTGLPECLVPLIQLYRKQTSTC
UniProt Q9Y2R2, sequence (whole entry, looked up): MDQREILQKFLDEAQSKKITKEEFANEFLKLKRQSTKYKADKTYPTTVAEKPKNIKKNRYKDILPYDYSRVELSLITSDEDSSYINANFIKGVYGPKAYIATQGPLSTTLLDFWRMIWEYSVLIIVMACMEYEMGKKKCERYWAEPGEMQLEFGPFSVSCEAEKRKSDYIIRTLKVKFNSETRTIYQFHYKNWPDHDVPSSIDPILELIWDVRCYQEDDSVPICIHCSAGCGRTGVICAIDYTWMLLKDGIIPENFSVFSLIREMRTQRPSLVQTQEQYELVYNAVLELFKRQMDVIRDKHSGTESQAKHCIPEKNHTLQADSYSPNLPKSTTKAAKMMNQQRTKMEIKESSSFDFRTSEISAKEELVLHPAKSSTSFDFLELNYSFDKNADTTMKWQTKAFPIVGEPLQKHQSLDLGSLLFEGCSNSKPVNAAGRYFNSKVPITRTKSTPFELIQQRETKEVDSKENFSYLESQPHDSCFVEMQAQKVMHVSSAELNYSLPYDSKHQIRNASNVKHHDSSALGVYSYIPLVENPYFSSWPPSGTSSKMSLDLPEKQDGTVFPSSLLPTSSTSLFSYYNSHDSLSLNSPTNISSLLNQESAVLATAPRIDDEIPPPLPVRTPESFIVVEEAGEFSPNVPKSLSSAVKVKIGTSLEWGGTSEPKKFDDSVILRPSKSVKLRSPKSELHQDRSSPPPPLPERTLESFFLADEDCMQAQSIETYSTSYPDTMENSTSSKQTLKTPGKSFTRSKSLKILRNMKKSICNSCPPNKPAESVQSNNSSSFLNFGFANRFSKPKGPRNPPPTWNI
UniProt Q61327, sequence (whole entry, looked up): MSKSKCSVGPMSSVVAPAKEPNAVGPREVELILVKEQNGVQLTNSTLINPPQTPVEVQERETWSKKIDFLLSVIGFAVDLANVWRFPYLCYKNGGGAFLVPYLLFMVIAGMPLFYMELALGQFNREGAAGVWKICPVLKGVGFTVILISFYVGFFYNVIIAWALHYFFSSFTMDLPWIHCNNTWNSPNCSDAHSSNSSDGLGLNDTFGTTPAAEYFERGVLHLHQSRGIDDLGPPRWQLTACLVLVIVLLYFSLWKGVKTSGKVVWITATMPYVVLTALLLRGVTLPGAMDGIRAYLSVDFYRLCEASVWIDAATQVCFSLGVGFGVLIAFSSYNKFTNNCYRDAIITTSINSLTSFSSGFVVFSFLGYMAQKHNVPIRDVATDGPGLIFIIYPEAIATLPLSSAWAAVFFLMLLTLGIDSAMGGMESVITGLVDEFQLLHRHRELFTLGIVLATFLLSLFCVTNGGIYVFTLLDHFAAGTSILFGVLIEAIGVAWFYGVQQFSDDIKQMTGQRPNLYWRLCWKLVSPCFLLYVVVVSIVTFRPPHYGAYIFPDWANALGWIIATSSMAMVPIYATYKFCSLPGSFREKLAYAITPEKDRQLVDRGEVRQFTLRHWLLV
UniProt P53671, sequence (whole entry, looked up): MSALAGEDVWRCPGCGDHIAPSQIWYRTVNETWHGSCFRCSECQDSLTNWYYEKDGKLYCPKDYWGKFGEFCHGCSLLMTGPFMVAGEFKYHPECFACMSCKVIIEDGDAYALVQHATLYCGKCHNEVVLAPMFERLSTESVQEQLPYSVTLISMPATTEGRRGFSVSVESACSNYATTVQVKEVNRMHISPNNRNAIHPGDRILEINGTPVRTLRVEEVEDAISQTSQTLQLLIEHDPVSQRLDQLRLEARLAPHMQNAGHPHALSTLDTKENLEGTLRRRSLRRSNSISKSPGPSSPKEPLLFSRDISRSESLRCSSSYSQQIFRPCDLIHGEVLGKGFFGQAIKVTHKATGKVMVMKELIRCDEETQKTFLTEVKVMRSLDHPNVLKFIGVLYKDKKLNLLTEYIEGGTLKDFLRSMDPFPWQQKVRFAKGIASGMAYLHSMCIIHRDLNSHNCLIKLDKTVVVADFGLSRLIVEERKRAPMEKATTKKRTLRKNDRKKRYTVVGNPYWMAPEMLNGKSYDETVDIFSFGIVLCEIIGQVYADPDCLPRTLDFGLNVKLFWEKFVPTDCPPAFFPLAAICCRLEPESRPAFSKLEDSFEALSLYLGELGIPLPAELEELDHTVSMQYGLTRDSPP
UniProt Q08345, sequence (whole entry, looked up): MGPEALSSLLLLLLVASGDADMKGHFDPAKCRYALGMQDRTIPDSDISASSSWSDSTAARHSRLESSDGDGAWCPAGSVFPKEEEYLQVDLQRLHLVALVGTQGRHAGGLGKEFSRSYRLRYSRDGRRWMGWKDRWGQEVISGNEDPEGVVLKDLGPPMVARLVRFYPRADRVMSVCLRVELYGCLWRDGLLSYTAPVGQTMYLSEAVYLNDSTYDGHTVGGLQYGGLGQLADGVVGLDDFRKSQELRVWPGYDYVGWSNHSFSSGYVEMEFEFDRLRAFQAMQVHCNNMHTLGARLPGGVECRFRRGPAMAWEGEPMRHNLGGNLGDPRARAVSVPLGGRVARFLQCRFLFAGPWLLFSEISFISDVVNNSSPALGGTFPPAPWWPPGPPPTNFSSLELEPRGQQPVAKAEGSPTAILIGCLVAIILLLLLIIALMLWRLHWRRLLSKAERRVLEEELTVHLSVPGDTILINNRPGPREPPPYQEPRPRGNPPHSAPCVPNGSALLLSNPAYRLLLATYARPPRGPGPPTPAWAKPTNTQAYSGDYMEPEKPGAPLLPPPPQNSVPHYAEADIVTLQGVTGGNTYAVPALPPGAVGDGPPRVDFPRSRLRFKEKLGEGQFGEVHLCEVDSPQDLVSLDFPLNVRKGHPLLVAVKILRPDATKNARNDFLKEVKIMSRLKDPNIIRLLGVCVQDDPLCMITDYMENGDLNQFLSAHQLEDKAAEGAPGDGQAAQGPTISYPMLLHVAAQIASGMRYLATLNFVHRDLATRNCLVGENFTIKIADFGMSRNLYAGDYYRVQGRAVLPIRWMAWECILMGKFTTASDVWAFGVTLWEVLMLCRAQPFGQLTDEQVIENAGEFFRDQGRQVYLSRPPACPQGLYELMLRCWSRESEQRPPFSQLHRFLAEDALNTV

Structure (SMILES) | target or system | test | system | setting | endpoint | value
Cc1ccc(NC(=O)Nc2ccc3c(c2)C=CCP(=O)(O)O3)cc1 | CA12 (Homo sapiens, UniProt O43570) | enzyme activity, inhibitor, stopped-flow | – | – | Ki | > 10 µM
CN(C)c1ncnc2c1ncn2[C@@H]1O[C@H](CCl)[C@@H](NC(=O)[C@H](CSC(c2ccccc2)c2ccccc2)NC(=O)OC(C)(C)C)[C@H]1O | Puromycin-sensitive aminopeptidase (Homo sapiens, UniProt P55786) | enzyme activity, inhibitor, fluorescence | – | – | IC50 | 5.9 µM
C#Cc1n[nH]c2c(-c3cn(C(C)c4ccccn4)c(=O)[nH]c3=O)cc(F)cc12 (stereo not drawn) | CSNK2A2 (Homo sapiens, UniProt P19784) | enzyme activity, inhibitor | – | 1 µM | inhibition | 5.4%
O=C(Nc1ccc2c(c1)C=CCP(=O)(O)O2)c1ccccc1I | CA2 | enzyme activity, inhibitor, stopped-flow | – | – | Ki | > 10 µM
O=C(Nc1cccc(Cl)c1Cl)Nc1ccnc2ccccc12 | PFF0160c E182D | enzyme activity, inhibitor, absorbance | – | – | IC50 | > 10 µM
[2H]c1c([2H])c([C@]2([2H])CCCN2C(=O)C(C)(C)Oc2ccc3cn[nH]c3c2)c([2H])c([2H])c1C([2H])([2H])[2H] | PAK6 (Homo sapiens, UniProt Q9NQU5) | binding, competition with immobilised ligand | – | 1 µM | remaining binding | 100%
COC(=O)c1cc(-c2cccc(NC(=S)Nc3ccc(F)cc3)c2)on1 | Klebsiella pneumoniae | microbial growth, broth dilution | BAA1705 | – | MIC | > 64 µg/mL
NCCc1ccc(Oc2ccc(O)cc2)c(I)c1 | Slc6a3 (Mus musculus, UniProt Q61327) | transporter uptake, inhibitor, radiometric | – | – | IC50 | 1.4 µM
COc1cc(CCNC(C)c2ccccc2O)c(OC)cc1C#N (stereo not drawn) | Htr2a | G protein activation, agonist, BRET | – | – | EC50 | 0.0138 µM
S=C(SSC(=S)N1CCCCC1)N1CCCCC1 | PTPN22 (Homo sapiens, UniProt Q9Y2R2) | enzyme activity, inhibitor, fluorescence | – | pH 6.5 | IC50 | 15 µM
COC(=O)c1cc(-c2cccc(NC(=S)Nc3ccc(F)c(Cl)c3)c2)on1 | Mycolicibacterium fortuitum | microbial growth, broth dilution | ATCC6841 | 48 h | MIC | 32 µg/mL (≈ 78.8 µM)
Nc1ncc(-c2nc(N3CCOCC3)nc(N3CCOCC3)n2)c(C(F)F)n1 | DDR1 (Homo sapiens, UniProt Q08345) | cell-free assay, competition with immobilised ligand | – | 10 µM | remaining binding | 69%
CC(Oc1ccc(C(=O)c2ccc(F)cc2)cc1)C(=O)N1CCc2ccccc21 (stereo not drawn) | PFF0160c E182D | enzyme activity, inhibitor, absorbance | – | – | IC50 | 0.483 µM
CCC(NCCc1cc(OC)c(C#N)cc1OC)c1ccccc1O (stereo not drawn) | HTR2C | G protein activation, agonist, BRET | – | – | EC50 | 2.4 µM
CS(=O)(=O)c1ccc2nc(-c3ccccc3)c(Nc3ccc(C(=O)O)cc3)n2c1 | TDP2 (Homo sapiens, UniProt O95551) | enzyme activity, inhibitor, fluorescence | – | – | IC50 | 80 µM
N#Cc1c(F)cccc1N1CCN(c2ccc(O)cc2)CC1 | PFF0160c | enzyme activity, inhibitor, absorbance | – | – | IC50 | 7.23 µM
O=C(Nc1ccccc1)Nc1ccc2c(c1)C=CCP(=O)(O)O2 | CA2 | enzyme activity, inhibitor, stopped-flow | – | – | Ki | > 10 µM
COc1cc(CCNC(C)c2ccccc2)c(OC)cc1C#N (stereo not drawn) | Htr2a | G protein activation, agonist, BRET | – | – | EC50 | 0.14 µM
COc1ncccc1-c1cnn2ccc(N3CCN(C(=O)OC(C)C)CC3)nc12 | TAOK1 (Homo sapiens, UniProt Q7L7X3) | binding, competition with immobilised ligand | – | 1 µM | remaining binding | 60%
CC1CN(Cc2ccc(-c3ccc(C(=O)NCC4CCCO4)cn3)cc2)CC(C)O1 (stereo not drawn) | PFF0160c | enzyme activity, inhibitor, absorbance | – | – | IC50 | 4.56 µM
O=C(Nc1ccc2c(c1)C=CCP(=O)(O)O2)c1ccccc1 | CA2 | enzyme activity, inhibitor, stopped-flow | – | – | Ki | > 10 µM
CNC(C)Cc1ccc2c(c1)OCO2 (stereo not drawn) | SLC22A1 (Homo sapiens, UniProt O15245) | transporter uptake, inhibitor | – | – | IC50 | 2.15 µM
O=C(Nc1ccc2c(c1)C=CCP(=O)(O)O2)c1cccs1 | CA1 (Homo sapiens, UniProt P00915) | enzyme activity, inhibitor, stopped-flow | – | – | Ki | > 10 µM
COc1ccc(-n2ccnc2SCC(=O)Nc2cccc(C(F)(F)F)c2)c(OC)c1 | PFF0160c | enzyme activity, inhibitor, absorbance | – | – | IC50 | 0.379 µM
COc1cc(CCNCc2ccccc2OC)c(OC)cc1Br | HTR2C | G protein activation, agonist, BRET | – | – | EC50 | 0.00027 µM
c1csc(-c2nnc3sc(Cc4ccc5c(c4)CCCC5)nn23)c1 | PFF0160c E182D | enzyme activity, inhibitor, absorbance | – | – | IC50 | 0.749 µM
Cc1nn(C)cc1-c1nc2c(N3CCN(Cc4ccc(Cl)cc4)CC3)c(Cl)cnc2[nH]1 | LIM domain kinase 2 (LIMK2, Homo sapiens, UniProt P53671) | binding, competition with immobilised ligand | – | 1 µM | remaining binding | 75%

Repeated from above:
Structure (SMILES) | target or system | test | system | setting | endpoint | value
NCCc1ccc(Oc2ccc(O)cc2)c(I)c1 | Slc6a3 (Mus musculus, UniProt Q61327) | transporter uptake, inhibitor, radiometric | – | – | IC50 | 1.4 µM
COc1cc(CCNC(C)c2ccccc2O)c(OC)cc1C#N (stereo not drawn) | Htr2a | G protein activation, agonist, BRET | – | – | EC50 | 0.0138 µM
S=C(SSC(=S)N1CCCCC1)N1CCCCC1 | PTPN22 (Homo sapiens, UniProt Q9Y2R2) | enzyme activity, inhibitor, fluorescence | – | pH 6.5 | IC50 | 15 µM
COC(=O)c1cc(-c2cccc(NC(=S)Nc3ccc(F)c(Cl)c3)c2)on1 | Mycolicibacterium fortuitum | microbial growth, broth dilution | ATCC6841 | 48 h | MIC | 32 µg/mL (≈ 78.8 µM)
